Measurements pooled from the literature.
Each numbered part is a random draw from the data of one study; scales do not carry over between parts.

Sample 1
Target: Histone acetyltransferase KAT6A, both winged helices, GST fusion (KAT6A, Homo sapiens, UniProt Q92794, residues 1-181)
Method: protein binding microarray
Form: double-stranded DNA, one strand shown
Medium: in vitro
Tested at: not given
Notes: 8-mer, flanks averaged, mean of 2 arrays, mostly near background
Reference: not given
Reading: higher = stronger binding
Target sequence (chain): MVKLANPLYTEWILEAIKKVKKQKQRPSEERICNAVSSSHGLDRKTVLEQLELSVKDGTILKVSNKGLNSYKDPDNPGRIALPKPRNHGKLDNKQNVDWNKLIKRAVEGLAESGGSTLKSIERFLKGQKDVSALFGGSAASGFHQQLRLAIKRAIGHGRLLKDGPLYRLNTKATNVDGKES
Oligonucleotide	E-score
CAAGTCTC	-0.216
AATCAAAC	0.000375
AGATCGTA	-0.144
TCGGGCAA	0.0623
ACAGTCAG	0.0341
GCGTCCCA	-0.00317
AGGGAACG	-0.101
GATGCTAA	-0.00107
AGAGATAG	-0.047
AGATCGCT	0.167
CAGTGACA	-0.0881
AAGGGTCA	-0.161
AGGTCGCG	0.14
AGCTGTCC	-0.155
CAGAGTGA	-0.198
AGGGGAAG	-0.31
CTCACCAG	-0.257
CTCGACGC	0.11
CTAGAAGA	-0.209
CTAGGAGA	-0.209
ACTTCGAA	-0.167
GTGCCTGA	-0.0372
CTGCTTTC	-0.0361
GTATTAAC	0.0729
AACGCTTG	-0.0342

Sample 2
Target: RNA binding protein fox-1 homolog 2, RRM domain, GST-SBP tag (RBFOX2, Homo sapiens, UniProt O43251-10, residues 100-194)
Method: RNA Bind-n-Seq
Form: RNA
Medium: in vitro
Tested at: 365 nM
Notes: natural RNA segment, single round, ends assumed
Reference: no-protein control
Reading: higher = stronger binding
Constant ends, left off below: GGGAGUUCUACAGUCCGACGAUC … UGGAAUUCUCGGGUGCCAA
Residues (chain): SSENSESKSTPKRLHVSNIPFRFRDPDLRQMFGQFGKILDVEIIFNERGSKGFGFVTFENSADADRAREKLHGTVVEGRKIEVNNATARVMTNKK
Oligonucleotide	RBNS enrichment (R)
UGGGAACUUAUUAUACAUGGACAUUUUUGAAUAUGCCUUAAUUUAGAAACUGAAAAAUAAUCCAGUGACAUCAUUCUGGGUGUGUUCUCACUAGCUCGCGGGGCCACUUG	0.553
UGCCCCAAAAUGCAAGAUUUUCCACAAGAUUCCCAGAGACAGGAAAAUCCUCUGGCUGGCUAACUGGAAGCAUGUAGGAGAAUCCAAGCGAGGUCAACAGAGAAGGCAGG	2.49
AGGUGGAAGAGGAGAACUGGCUCCCCACAGUUGUCCCCUGACCCUCACCCCUAACCCCCAAUCACAAAGAAAGGUAAUAAAAAUAUAAAUUCCAAGGAUUAGGAAAAGUG	0.461
UCCAAAUGAGCUGCUAUAAAACACCUUUCAGGGGCUGAGAUGCAGCUCUGGUGUGAGUCACUUACCUAGCUUAUGUCAGGCCCCUAAAAGUAAUGCAUAAACUGUCAGAA	0.233
GACGUUUUUUUUCCCCCCAUCAAAAUUAAAACUCUUUCUUUUGGAUUUAAUGAAGUAUUGCUAACUGAAGCCAGUUUGACUUGUGAGAGAGGUUAGACUGACAGAAGGUG	0.938
AAUUCAUCAAAUAGAUUGCUCCUAAAUCCAAUUGUUAAAAUUGGAUCAGAAUAAUUAUCACAGGAACUUAAAUGUUAAGCCAUUAGCAUAGAAAAACUGUUCUCAGUUUU	0.549
AGCAAAGAACAGCAUCACCUUGAUAAAUGUCUUGACUCAGUCUGCGGCUUGUGAUCUGAAAAGUUCUCUAGGGUACCCUGGUUUUUGAAAUAUGCCUUCCUGCUGAGCUG	0.448
AAUUAUUUUUUUAAAAACGUAAUUUGUUUUUAAAAGAUGAGUCUCCAUUCAUUGGCUAAUCCAUACAGCAAAUAUUUGAGUGUUUGUGAUAUGGCAGUAAAAAUGUGAUU	0.384
CAUAUGCAAAUCUUUUAUUGUAGAGGACCAGACCAUCGCUGCUGAAGGGACAGGCUGGUGGAGCCUGAGCAGGCAGGGGCUUGGCUGCCCAAGUCUAGCUCUCCAGCAGA	0.423
AGUCCAGGGGAGAAGCUUCUGCUACUUCAGAGCUUUGCUAAACUAACCUAAUUUGUCCAAAUCACCCCAAAACCACCAUCUCUGACGUAAGCUUCCAUGCGACAGCCUGA	0.545
UUAUUACUAUUAGGUAUGUGAGCUUGGGCAAAUCGCUUAAUCUUUGAGUCUAGUUUUCUCUCAAAAUGAGAACAUUAGGCUAAAUGAUUUCCGAGUUUCCAGCUAGUCCU	0.46
UGUUGCUUCCUGUUUUAGUGUCUGAACUCUGACAGGGUGACAGGGACCUUGCUGGUGUAGUCUUUUUAUAGGUUUUAUAAACCACAUGAGCCUAUAUCAGUCAUUUUAGU	0.365

Sample 3
Target: Prothrombin, mature alpha-thrombin (F2, Homo sapiens, UniProt P00734)
Method: aptamer microarray, sandwich
Form: DNA with 2'F-ANA
Medium: in vitro
Tested at: 200 nM
Notes: whole 15-mer aptamer, many near background
Added: Cy3 exosite-II aptamer, 400 nM
Reading: higher = stronger binding
Oligonucleotide: GGTTGGTGTGGTTGG
Modification	mean fluorescence intensity
2'F-ANA at 2 3 5 7 13	76.1 a.u.
2'F-ANA at 2 3 4 6 8 10 12 13	210 a.u.
2'F-ANA at 3 5 6 8 9 10 11 12 14	51.5 a.u.
2'F-ANA at 2 3 4 6 8 9 12	786 a.u.
2'F-ANA at 4 5 6 7 8 15	72.6 a.u.
2'F-ANA at 2 5 9 10 11 12	52.5 a.u.
2'F-ANA at 1 2 4 6 7 9 12 13	201 a.u.
2'F-ANA at 1 4 5 7 8 12 13 14 15	49.2 a.u.
2'F-ANA at 1 3 5 6 9 10 11 13 15	47 a.u.
2'F-ANA at 1 2 4 6 8 10 11 13 15	51.5 a.u.
2'F-ANA at 4 5 9 13 14	46.1 a.u.
2'F-ANA at 2 3 4 7 8 9 10 12 14 15	194 a.u.
2'F-ANA at 3 4 6 7 8 13 14 15	302 a.u.
2'F-ANA at 2 3 9	863 a.u.
2'F-ANA at 1 2 4 5 6 11 12 13 14 15	49.3 a.u.
2'F-ANA at 1 2 3 4 5 7 8 11	52.9 a.u.
2'F-ANA at 1 3 7 8 10 11 14	99.5 a.u.
2'F-ANA at 1 2 3 4 5 6 9 10 14 15	57.8 a.u.
2'F-ANA at 2 4 7 10 12 13	108 a.u.
2'F-ANA at 1 12	425 a.u.
2'F-ANA at 5 7 8 9 14 15	48.4 a.u.
2'F-ANA at 1 2 5 8 9 10 11 14 15	49.3 a.u.
2'F-ANA at 1 2 5 9 11 12 13 14 15	73.5 a.u.
2'F-ANA at 3 5 6 10 15	53.8 a.u.
2'F-ANA at 2 4 8 10 11 13 14 15	58.2 a.u.

Sample 4
Target: Fragile X messenger ribonucleoprotein 1, C-terminal low-complexity region (Fmr1, Mus musculus, UniProt P35922)
Method: RNA Bind-n-Seq
Form: RNA
Medium: in vitro
Tested at: 200 nM
Notes: whole 134-nt RNA, ends assumed
Added: 150 mM KCl
Reference: input library
Reading: higher = stronger binding
Constant ends, left off below: GGGAGUUCUACAGUCCGACGAUC … UGGAAUUCUCGGGUGUCAAGG
Oligonucleotide	log2 enrichment
UCAAGUCCUGUGCUACACAUCGUAUGUACCGAAUCGGGAAGGGGAAGGAAGGGGAAAGUAUUAUGUUACGCCGUUCGGAUCUGCACUUCC	0.796
CAAGUCCUGUGCUACACAUCGUAUGUACCGAAUCGGGGUUUGGGGAGGGGAGGGGAAAGUAUUAUGUUACGCCGUUCGGAUCUGCACUUC	1.12
CAAGUCCUGUGCUACACAUCGUAUGUACCGAAUCGGGAGGGAAAAAGGGUUUGGGAAAGUAUUAUGUUACGCCGUUCGGAUCUGCACUUC	0.862
UGGUGUUCAUAUUGCUGAUGUGAGCCAUUUUAUUAGGCCAGGAAAUGCCUUGGAUCAAGAAUCAGCCAGAAGAGGAACAACUGUGUAUCU	-0.206
GUCCUGUGCUACACAUCGUAUGUACCGAAUCGGAAAAAAGGGAAAAAAGGGAAAAAAGGAAAGUAUUAUGUUACGCCGUUCGGAUCUGCA	-0.897
AAGUCCUGUGCUACACAUCGUAUGUACCGAAUCGGGAAAAAGGGAAAGGGAAAGGGAAAGUAUUAUGUUACGCCGUUCGGAUCUGCACUU	0.143
UCCUCAAGUCCUGUGCUACACAUCGUAUGUACCGAAUCGGGAGGGGAGGAGGAAAGUAUUAUGUUACGCCGUUCGGAUCUGCACUUCCAG	0.232
CUCAAGUCCUGUGCUACACAUCGUAUGUACCGAAUCGGUUGGGGUUGGGUUGGAAAGUAUUAUGUUACGCCGUUCGGAUCUGCACUUCCA	0.0765
GCAGGAAGUAAAAACAAAUGGAAAUGCUUCGGAUAGUGGCAGGGGUGGGGGUUGCUAAGGAAAGGGUGGGAUCGGAGUGGGUAAAGAGUU	0.205
UAUCUUUAGAGGAGGAUCUGAUGGAUAUGGCAGUGGACGUGGAUUUGGGGAUGGCUAUAAUGGGUAUGGAGGAGGACCUGGAGGUGGCAA	0.297
GCAGGAAGUAAAAACAAAUGGAAAUGCUUCGGAUAGUGGCACGGGUGGGGGUUGCUAAGGAAAGGGUGGGAUGGGAGUGGGUAAAGAGUU	0.332
CUGUGCUACACAUCGUAUGUACCGAAUCGGGGAAAAAAAGGGGAAAAAGGGGAAAAAGGGGAAAGUAUUAUGUUACGCCGUUCGGAUCUG	-0.317
UCCUGUGCUACACAUCGUAUGUACCGAAUCGGGGUUUUUGGGGUGGGGAAAAAAAGGGGAAAGUAUUAUGUUACGCCGUUCGGAUCUGCA	0.736
UCAAGUCCUGUGCUACACAUCGUAUGUACCGAAUCGGAAAGGAGGUUUUUUUGGAAAGUAUUAUGUUACGCCGUUCGGAUCUGCACUUCC	-0.526

Excerpt of the above (sample 1):
Oligonucleotide	E-score
CTCGACGC	0.11
AGGGGAAG	-0.31
CTAGAAGA	-0.209
AGAGATAG	-0.047
AGGGAACG	-0.101
AAGGGTCA	-0.161
CTGCTTTC	-0.0361
ACTTCGAA	-0.167
